Results from different studies.
Lines come from different studies, so protocols differ. ± gives the spread as reported.

The IC50 of `COC1=CC(=O)c2ccccc2C1=O` is reported as 11.9 µM (MRC-5; cell viability, alamarBlue; 24 h).
`Cc1c(C)c2c(c(C)c1O)CCC(C)(COc1ccc(CC3SC(=O)NC3=O)cc1)O2` (stereo not shown) gave an IC50 of 25 µM (hepatocytes, iPSC-derived, line L2; cell viability, RealTime-Glo MT; 48 h, differentiation day 23).
The IC50 of `COc1cc(N2CCC(N3CCN(C)CC3)CC2)ccc1Nc1ncc(Cl)c(Nc2ccccc2P(C)(C)=O)n1` is reported as 0.0337 µM (Ba/F3 EML4-ALK variant 1 L1196Q; cell viability).
The IC50 of `CCCCN1C[C@H](O)[C@@H](O)[C@@H](O)[C@H]1CO` is reported as 61.1 µM (sample D patient fibroblasts; GlcCer level lowering, LC-MS/MS, refers to: GlcCer d18:1/24:1; 216 h).
For `Cc1cc(Nc2ncc(Cl)c(Nc3ccccc3S(=O)(=O)C(C)C)n2)c(OC(C)C)cc1C1CCNCC1`, the IC50 was 1.41 µM (Ba/F3 ETV6-TRKB; cell viability).
`CC[C@@H](C)[C@H](N)C(=O)N1Cc2ccccc2C1` gave an IC50 of 4.2 µM (NOMO-1; cell viability, CellTiter-Glo; day 2).
The IC50 of `C[C@H](Nc1ncnc2nc[nH]c12)c1cc2cccc(Cl)c2c(=O)n1-c1ccccc1` is reported as 0.015 µM (basophils; CD63 upregulation, inhibitor; human whole blood; PI3K delta response, added: IgE).
The IC50 of `C=CC(C)(C)c1[nH]cnc1/C=C1/NC(=O)[C@H](C(C)C)NC1=O` is reported as 9.95 µM (NCI-H446/EP; cell growth, SRB).
The IC50 of `C=CC(=O)NC1CCN(c2ncc3ncnc(Nc4ccc(Oc5ccc6c(c5)ncn6C)c(C)c4)c3n2)CC1` is reported as 0.0016 µM (Ba/F3 expressing HER2 V777L; cell growth, inhibitor, CellTiter-Glo).
`CC(C)(C)Cn1c(N)nc2ccc(-c3[nH]c(C(C)(C)C)nc3-c3ccc(F)cc3)nc21` gave an IC50 of 0.15 µM (Ba/F3 expressing EGFR L858R; cell viability; without IL-3).
`CC(=O)N1c2ccc(-c3ccc(C(=O)O)cc3)cc2[C@H](Nc2ccc(Cl)cc2)C[C@@H]1C` has an IC50 of 0.169 µM (uveal melanoma cell lines; cell viability; average over cell lines).
The IC50 of `O=C(C[C@@H](C(F)F)n1ccc(F)n1)N1CCC(O)(Cn2cnc3c(cnn3-c3ccc(F)cc3)c2=O)CC1` is reported as 5.82 µM (LNCaP USP7 V517F knock-in; cell viability, CCK-8; 5 days).
The IC50 of `O=C(O)COCC(=O)O` is reported as 15400 µM (hepatocytes, iPSC-derived, line L2; cell viability, RealTime-Glo MT; 72 h, differentiation day 23).
The IC50 of `CC1=C(CO)C(=O)O[C@@H]([C@@H](C)[C@H]2CC[C@H]3[C@@H]4C[C@H]5O[C@]56[C@@H](O)C=CC(=O)[C@]6(C)[C@H]4CC[C@]23C)C1` is reported as 0.258 µM (THP-1; pyroptotic cell death, inhibitor, CellTiter-Glo; added: LPS priming and nigericin).
For `Cc1cc(Nc2ncnc3ccc(NC4=NC(C)(C)CO4)cc23)ccc1Oc1ccn2ncnc2c1`, the IC50 was 0.005 µM (Ba/F3 expressing HER2 V777L; cell growth, inhibitor, CellTiter-Glo).
For `COc1ccc2c(c1)OC1=C(C(=O)CC(C)(C)C1)C2c1c(C(=O)O)[nH]c2ccccc12` (stereo not shown), the IC50 was 35.6 ± 1.67 µg/mL (3T3-L1 pre-adipocytes; cell viability, MTT; 72 h).
For `Cc1noc(C)c1-c1cc(C(O)(c2ccccn2)c2ccccn2)c2nc(C3CC3)[nH]c2c1`, the IC50 was 0.105 µM (uveal melanoma cell lines; cell viability; average over cell lines).
`Cc1ccc(CNC(=O)Cn2cc(CSc3nc4ccccc4[nH]3)nn2)cc1` gave an IC50 of 17.7 µg/mL (HEK293; cell viability, MTT).
`CN1CCN(c2ccc(C(=O)Nc3n[nH]c4ccc(Cc5cc(F)cc(F)c5)cc34)c(NC3CCOCC3)c2)CC1` gave an IC50 of 5.41 ± 1.32 µM (KM12-Luc (TPM3-NTRK1); cell growth, CellTiter-Glo; 72 h).

Repeated from above:
For `COc1ccc2c(c1)OC1=C(C(=O)CC(C)(C)C1)C2c1c(C(=O)O)[nH]c2ccccc12` (stereo not shown), the IC50 was 35.6 ± 1.67 µg/mL (3T3-L1 pre-adipocytes; cell viability, MTT; 72 h).
